Published values of several laboratories.
Protocols differ between the studies behind these lines. ± marks the error that the study gave.
ABCB1: ATP-dependent translocase ABCB1 (ABCB1, Homo sapiens, UniProt P08183)

CC(C)[C@H](NC(=O)OC(C)(C)C)c1nc(C(=O)N[C@H](c2nc(C(=O)N[C@H](c3nc(C(=O)O)cs3)C(C)C)cs2)C(C)C)cs1 gave an inhibition of less than 10% (ABCB1; Bodipy-FL-prazosin efflux, flow cytometry; HeLa transduced with BacMam ABCB1; 10 µM, 45 min, 5% FBS; reference: 1 µM tariquidar).
The IC50 of COc1ccccc1-c1cc2nc(-c3ccccc3)cc(N3CCN(C(=O)c4ccoc4)CC3)n2n1 is reported as 2170 ± 760 nM (ABCB1; JC-1 efflux, inhibitor; Jurkat-DNR).
The efflux ratio of Cc1ccc(Nc2nccc(N(C)c3ccc4c(C)n(C)nc4c3)n2)cc1S(N)(=O)=O is reported as 1.1 (ABCB1; bidirectional transport; MDCK-MDR1; 5 µM, 240 min, together with: erlotinib 5 µM; reference: B-A over A-B).
COc1ccc(-c2cc3nc(-c4ccco4)cc(N4CCN(C(=O)c5ccoc5)CC4)n3n2)cc1 has an IC50 of 3450 nM (ABCB1; JC-1 efflux, inhibitor; Jurkat-DNR).
For CC(=O)O[C@H]1C(=O)[C@@]2(C)[C@H]([C@H](OC(=O)c3ccccc3)[C@]3(O)C[C@H](OC(=O)[C@H](O)[C@@H](NC(=O)c4ccccc4)c4ccccc4)C(C)=C1C3(C)C)[C@]1(OC(C)=O)CO[C@@H]1C[C@@H]2O, the Vmax was 9.5 ± 1 nmol Pi/min/mg protein (ABCB1; ATPase activity, substrate; membranes; together with: ATP 1 mM).
COc1ccc(-c2cc3nc(-c4ccccc4)cc(N4CCN(C(=O)c5ccoc5)CC4)n3n2)cc1 has an IC50 of 1440 ± 700 nM (ABCB1; JC-1 efflux, inhibitor; Jurkat-DNR).
CCOC(=O)c1csc([C@@H](NC(=O)c2csc([C@@H](NC(=O)c3csc([C@@H](NC(=O)c4csc([C@@H](NC(=O)OC(C)(C)C)C(C)C)n4)C(C)C)n3)C(C)C)n2)C(C)C)n1 gave an inhibition of 81% (ABCB1; Bodipy-FL-prazosin efflux, flow cytometry; HeLa transduced with BacMam ABCB1; 10 µM, 45 min, 5% FBS; reference: 1 µM tariquidar).
C[C@H]1O[C@@H](O[C@H]2[C@@H](O)C[C@H](O[C@H]3[C@@H](O)C[C@H](O[C@H]4CC[C@@]5(C)[C@H](CC[C@@H]6[C@@H]5C[C@@H](O)[C@]5(C)[C@@H](C7=CC(=O)OC7)CC[C@]65O)C4)O[C@@H]3C)O[C@@H]2C)C[C@H](O)[C@@H]1O gave a Papp of 4.2 ± 0.23 ×10⁻⁶ cm/s (ABCB1; LLC-PK1 cells expressing human ABCB1; 3.5 h, together with: zosuquidar 1 µM; apical to basolateral).
O=C(c1ccccc1)N1CCN(c2cc(-c3ccccc3)nc3cc(-c4cccc(F)c4)nn23)CC1 has an IC50 of 4340 ± 2090 nM (ABCB1; JC-1 efflux, inhibitor; Jurkat-DNR).
CC(C)[C@H](NC(=O)OC(C)(C)C)c1nc(C(=O)O)cs1 has an inhibition of less than 5% (ABCB1; calcein-AM efflux, flow cytometry; HeLa transduced with BacMam ABCB1; 20 µM, 10 min, 5% FBS, together with: calcein-AM 0.5 µM; reference: 1 µM tariquidar).
CN(C)CCC(c1ccc(Cl)cc1)c1ccccn1 (stereo not shown) gave an efflux ratio of less than 2 (ABCB1; transport; MDCK-MDR1; 10 µM, 90 min; reference: B-A over A-B).
The inhibition of CCOC(=O)c1csc([C@@H](N)C(C)C)n1 is reported as less than 5% (ABCB1; Bodipy-FL-prazosin efflux, flow cytometry; HeLa transduced with BacMam ABCB1; 20 µM, 45 min, 5% FBS; reference: 1 µM tariquidar).
For COC(=O)c1ccccc1-c1c2ccc(=N)cc-2oc2cc(N)ccc12, “efflux rate constant” read 54 ± 12% (ATP-dependent translocase ABCB1 (ABCB1, Homo sapiens, UniProt P08183, Y953F); zero-trans efflux, substrate; HEK293 transfected with P-gp Y953F; 0.53 µM, pH 7.4, normalised to surface expression).
